{"data": "Experimental data pooled from the literature", "organism": "Staphylococcus aureus", "note": "Lines come from different studies, so protocols differ. Bridge positions count the residues as written; N and C are the ends. Ends that are not written are not given here. * marks the point of attachment."}
{"Substance": "CC[C@H](C)[C@H](NC(=O)[C@H](C)NC(=O)[C@@H](NC(=O)[C@H](C)NC(=O)CNC(=O)[C@H](CCSC)NC(=O)[C@H](CCC(N)=O)NC(=O)[C@H](CC(C)C)NC(=O)[C@H](CO)NC(=O)[C@@H](N)Cc1ccc(O)cc1)[C@@H](C)O)C(=O)N[C@@H](CCCCN)C(=O)N[C@@H](CCC(N)=O)C(=O)N[C@H](C(=O)N[C@@H](CCCCN)C(=O)N[C@@H](CCCCN)C(=O)N[C@@H](CC(C)C)C(=O)N[C@@H](Cc1ccccc1)C(=O)N[C@@H](CCCCN)C(=O)N[C@@H](CCCCN)C(=O)N[C@@H](CCCCN)C(=O)NCC(=O)NCC(N)=O)C(C)C", "test system": "ATCC 25923", "conditions": "24 h, 37 °C", "measurement": "MBC", "value": "78 µM"}
{"Substance": "CCCCCCOc1c(OC)cc(NC(C)CCCNC(=O)C(N)Cc2cnc[nH]2)c2nc(C(C)(C)C)ccc12 (stereo not drawn)", "assay": "microbial killing", "test system": "ATCC33591 MRSA", "conditions": "drug-resistant strain", "measurement": "MBC", "value": "20 µg/mL"}
{"Substance": "Myristoyl-SCLPKEEQIGKSTRGRKCRRKK (disulfide 2-18 (inferred)) (N-myristoyl, disulfide; Myristoyl = CCCCCCCCCCCCCC(=O)*)", "test system": "ATCC 8530", "conditions": "MBC, 2 h, pH 7.4, 37 °C, added: E. coli K-235 LPS at peptide:LPS 1:5 w/w", "measurement": "antibacterial activity", "value": "inhibited"}
{"Substance": "CC[C@H](C)[C@H](NC(=O)[C@H](CCCCN)NC(=O)[C@H](CCC(=O)O)NC(=O)[C@H](CCCCN)NC(=O)[C@H](CO)NC(=O)[C@H](CCCCN)NC(=O)[C@H](CCCNC(=N)N)NC(=O)[C@H](Cc1ccccc1)NC(=O)[C@H](Cc1ccccc1)NC(=O)[C@H](CC(=O)O)NC(=O)CNC(=O)[C@H](CC(C)C)NC(=O)[C@@H](N)CC(C)C)C(=O)NCC(=O)N[C@@H](CCCCN)C(=O)N[C@@H](CCC(=O)O)C(=O)N[C@@H](Cc1ccccc1)C(=O)N[C@@H](CCCCN)C(=O)N[C@@H](CCCNC(=N)N)C(=O)N[C@H](C(=O)N[C@H](C(=O)N[C@@H](CCC(N)=O)C(=O)N[C@@H](CCCNC(=N)N)C(=O)N[C@H](C(=O)N[C@@H](CCCCN)C(=O)N[C@@H](CC(=O)O)C(=O)N[C@@H](Cc1ccccc1)C(=O)N[C@@H](CC(C)C)C(=O)N[C@@H](CCCNC(=N)N)C(=O)N[C@@H](CC(N)=O)C(=O)N[C@@H](CC(C)C)C(=O)N[C@H](C(=O)N1CCC[C@H]1C(=O)N[C@@H](CCCNC(=N)N)C(=O)N[C@H](C(=O)N[C@@H](CCC(=O)O)C(=O)N[C@@H](CO)C(=O)O)[C@@H](C)O)C(C)C)[C@@H](C)CC)C(C)C)[C@@H](C)CC", "test system": "JE2 SAUSA300_1308 arlR transposon mutant", "conditions": "12.5% TSB", "scale": "reference: wild type over mutant", "measurement": "MIC ratio", "value": "2 fold"}
{"Substance": "CCCCCCCCOc1c(OC)cc(NC(C)CCCNC(=O)C(N)Cc2ccccc2)c2nc(C(C)(C)C)ccc12 (stereo not drawn)", "assay": "bacterial growth", "test system": "MRSA ATCC 33591", "measurement": "IC50", "value": "> 20 µg/mL"}
{"Substance": "eremomycin", "test system": "10, female SHK mice, sepsis", "conditions": "intravenous, 30 min after infection, 10 days observation", "measurement": "ED50", "value": "2 mg/kg"}
{"Substance": "CCCCCCCCOc1c(OC)cc(NC(C)CCCN)c2nc(C(C)(C)C)cc(C)c12 (stereo not drawn)", "test system": "MRSA ATCC 33591", "measurement": "MBC", "value": "> 20 µg/mL"}
{"Substance": "CC[C@H](C)[C@H](NC(=O)[C@@H](NC(=O)CN)C(C)C)C(=O)N[C@@H](Cc1ccccc1)C(=O)N[C@@H](CC(N)=O)C(=O)N[C@@H](C)C(=O)N[C@@H](CC(C)C)C(=O)N[C@@H](CCCCN)C(=O)NCC(=O)N[C@H](C(=O)N[C@@H](C)C(=O)N[C@@H](CCCCN)C(=O)N[C@H](C(=O)N[C@H](C(=O)N[C@@H](C)C(=O)N[C@@H](C)C(=O)N[C@@H](CCC(N)=O)C(=O)N[C@@H](CC(C)C)C(=O)N[C@@H](CC(C)C)C(=O)N[C@@H](CCCCN)C(=O)N[C@@H](CCCCN)C(=O)N[C@@H](C)C(=O)N[C@@H](CCCNC(=N)N)C(N)=O)C(C)C)[C@@H](C)O)C(C)C", "assay": "persister cells in biofilm", "test system": "MRSA NCTC 12493", "conditions": "added: vancomycin 4 µg/mL", "measurement": "MBEC", "value": "256 µM"}
{"Substance": "CC[C@H]1OC(=O)[C@H](C)[C@@H](O[C@H]2C[C@@](C)(OC)[C@@H](O)[C@H](C)O2)[C@H](C)[C@@H](O[C@@H]2O[C@H](C)C[C@H](N(C)C)[C@H]2O)[C@](C)(OC)C[C@@H](C)C(=O)[C@H](C)[C@@H](O)[C@]1(C)O", "assay": "checkerboard broth microdilution", "test system": "ATCC 38591 oxacillin-resistant", "conditions": "added: magainin II", "measurement": "FIC index", "value": 1}
{"note": "Repeated from above:"}
{"Substance": "CCCCCCOc1c(OC)cc(NC(C)CCCNC(=O)C(N)Cc2cnc[nH]2)c2nc(C(C)(C)C)ccc12 (stereo not drawn)", "assay": "microbial killing", "test system": "ATCC33591 MRSA", "conditions": "drug-resistant strain", "measurement": "MBC", "value": "20 µg/mL"}
